{"data": "Published values pooled from the literature", "organism": "Enterococcus faecium"}
{"SMILES": "CNC(CC(C)C)C(=O)NC1C(=O)NC(CC(N)=O)C(=O)NC2C(=O)NC3C(=O)NC(C(=O)NC(C(=O)NCCCNC(=N)N)c4cc(O)cc(O)c4-c4cc3ccc4O)C(O)c3ccc(c(Cl)c3)Oc3cc2cc(c3OC2OC(CO)C(O)C(O)C2OC2CC(C)(N)C(O)C(C)O2)Oc2ccc(cc2Cl)C1O (centres unmarked)", "test system": "ATCC BAA-2317 VanA", "setting": "added: +NaH2PO4 100 µg/mL", "MIC": "4 µg/mL"}
{"SMILES": "CCn1cc[n+](CC)[c]1[Au-]([Cl])([Cl])[Cl]", "assay": "broth dilution", "test system": "DSM 20477", "setting": "20 h, 37 °C", "MIC": "2.3 µM"}
{"SMILES": "CC(C)C[C@H](NC(=O)[C@H](CC(N)=O)NC(=O)[C@H](CCCNC(=N)N)NC(=O)[C@@H](CC(C)C)NC(=O)[C@H](Cc1ccccc1)NC(=O)[C@H](CC(=O)O)NC(=O)[C@H](CCCCN)NC(=O)[C@@H](CC(C)C)NC(=O)[C@H](CCCNC(=N)N)NC(=O)[C@H](CCC(N)=O)NC(=O)[C@@H](NC(=O)[C@@H](CC(C)C)NC(=O)[C@H](CCCNC(=N)N)NC(=O)[C@H](CCCCN)NC(=O)[C@H](Cc1ccc(C(F)(F)F)cc1)NC(=O)CN)C(C)C)C(=O)N[C@H](C(N)=O)C(C)C", "assay": "broth microdilution", "test system": "ATCC 51559", "MIC": "25 to 50 µM"}
{"SMILES": "C=C(NC(=O)C(=C)NC(=O)c1csc(C2=NC3c4csc(n4)C4NC(=O)c5csc(n5)C(C(C)(O)C(C)O)NC(=O)C5CSC(=N5)C(=CC)NC(=O)C(C(C)O)NC(=O)c5csc(n5)C3(CC2)NC(=O)C(C)NC(=O)C(=C)NC(=O)C(CCSC)NC(=O)C(C(C)CC)NC2C=Cc3c(C(C)O)cc(nc3C2O)C(=O)OC4C)n1)C(N)=O (centres unmarked)", "assay": "broth microdilution", "test system": "ATCC 12952 VRE", "setting": "18 h, 37 °C", "MIC": "0.007 µg/mL"}
{"SMILES": "CCN(CC)CCCN1/C(=C/c2cc[n+](C)c3ccccc23)Sc2ccccc21", "assay": "microbial growth, broth dilution", "test system": "ATCC700221", "MIC": "2 µg/mL"}
{"SMILES": "Cc1csc(NCc2cc(N(C)C)c3c(c2O)C(=O)C2=C(O)[C@]4(O)C(=O)C(C(N)=O)=C(O)[C@@H](N(C)C)[C@@H]4C[C@@H]2C3)n1", "test system": "494, Tet M and Tet L", "MIC": "1 µg/mL"}
{"SMILES": "CNC(CC(C)C)C(=O)NC1C(=O)NC(CC(N)=O)C(=O)NC2C(=O)NC3C(=O)NC(C(=O)NC(C(=O)NCCCNC(=N)N)c4cc(O)cc(O)c4-c4cc3ccc4O)C(O)c3ccc(c(Cl)c3)Oc3cc2cc(c3OC2OC(CO)C(O)C(O)C2OC2CC(C)(NCc3ccc(-c4ccc(Cl)cc4)cc3)C(O)C(C)O2)Oc2ccc(cc2Cl)C1O (centres unmarked)", "test system": "ATCC BAA-2317 VanA", "setting": "−POPE", "MIC": "0.3 µg/mL"}
{"SMILES": "CN(C)c1cc(CNCC2CCCCC2)c(O)c2c1C[C@H]1C[C@H]3[C@H](N(C)C)C(O)=C(C(N)=O)C(=O)[C@@]3(O)C(O)=C1C2=O", "test system": "494, Tet M and Tet L", "MIC": "2 µg/mL"}
{"SMILES": "CC[P+](CC)(CC)[Au-][S][C@@H]1O[C@H](COC(C)=O)[C@@H](O[C@@H]2O[C@H](COC(C)=O)[C@H](OC(C)=O)[C@H](OC(C)=O)[C@H]2OC(C)=O)[C@H](OC(C)=O)[C@H]1OC(C)=O", "test system": "ATCC 700221", "MIC": "0.1 µM"}
{"SMILES": "CN(C)c1cc(CNCc2ccco2)c(O)c2c1C[C@H]1C[C@H]3[C@H](N(C)C)C(O)=C(C(N)=O)C(=O)[C@@]3(O)C(O)=C1C2=O", "test system": "494, Tet M and Tet L", "MIC": "0.5 µg/mL"}
{"SMILES": "CN1CCC(NCCC2(Cc3ccc(Cl)cc3)CCCCC2)CC1", "assay": "microbial growth", "test system": "VRE", "setting": "10 h", "MIC": "200 µM"}
{"note": "Some of these lines once more:"}
{"SMILES": "CN(C)c1cc(CNCc2ccco2)c(O)c2c1C[C@H]1C[C@H]3[C@H](N(C)C)C(O)=C(C(N)=O)C(=O)[C@@]3(O)C(O)=C1C2=O", "test system": "494, Tet M and Tet L", "MIC": "0.5 µg/mL"}
